Experimental data gathered from unrelated publications.
Parts stem from different laboratories: compare values within a part only.

Series 1
Target: Centromere-binding protein 1, full length, N-terminal tag (CBF1, Saccharomyces cerevisiae, UniProt P17106, residues 1-351)
Chain of UniProt P17106 (whole entry, looked up): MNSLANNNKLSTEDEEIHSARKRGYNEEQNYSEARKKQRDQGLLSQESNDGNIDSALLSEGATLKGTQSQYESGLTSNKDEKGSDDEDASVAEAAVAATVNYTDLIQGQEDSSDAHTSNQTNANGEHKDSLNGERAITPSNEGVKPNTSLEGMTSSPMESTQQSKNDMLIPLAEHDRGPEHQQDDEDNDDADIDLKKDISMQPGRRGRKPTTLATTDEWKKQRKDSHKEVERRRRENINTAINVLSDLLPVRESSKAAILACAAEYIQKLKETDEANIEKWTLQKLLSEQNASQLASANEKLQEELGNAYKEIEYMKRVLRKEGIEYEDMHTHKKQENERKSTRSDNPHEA
Technique: protein-binding microarray
Molecule type: double-stranded DNA, one strand shown
Medium: in vitro
Concentration: 0.8 µM
Notes: whole 60-bp probe, no competitor
Direction: higher = stronger binding
Shared flanks, not repeated: … GTCTTGATTCGCTTGACGCTGCTG
Oligonucleotide	fluorescence intensity
GAATTATAATATGGTTCACGTGCGCTTCATCTTTAG	4220 a.u.
GAAACAAGATCTCGCCGCGTGTATAGATATATATAG	573 a.u.
GAATGTGCGTCGTGTGACGTGATATTAATATAGTAG	1840 a.u.
CTATGGGTAGAGCGGCACATGGATGTAACAATCTTC	564 a.u.
CCTAACTACTATATGCACGCAAGATAGCTTCGTACA	513 a.u.
TGTACGAAGCTATCACACGTGATTATAGTAGTTAGG	6520 a.u.
CTAACTTTAAAATGCCACGAGTCGCCCCGTACCTTC	555 a.u.
GAAGTGGAAGCCTGACGCGTGCGCCCTTCTCCTTAG	523 a.u.
CCTAACTACTATACAAGTGTCACATAGCTTCGTACA	544 a.u.
GAACTCATACATAGCTAGGTGACATGTATACTGTAG	546 a.u.
CTAAGCTAAGAGAGTCACGGGACTAAAAGGTAATTC	5600 a.u.
CTAGCTCACGTTAGTCACATCTCAGGATTGGAATTC	590 a.u.
CTAATCGTGTCCAATTCCGTGATGTCTCTTTGTTTC	524 a.u.
GAAGAACATCAGCACCACGCCCGCAACGACAAATAG	549 a.u.
GAATAAAATTATAACGGCGTGCTCGAGAGAAAATAG	583 a.u.
CTATTCCACTTTCAGCACGTTCTCGTCATCAGGTTC	831 a.u.
CTAACCGATATAGAATGTCTGATGAAAGAGCAATTC	555 a.u.
CTATTTCGAACCCGTCAGGTGCAGGCTTGGATCTTC	809 a.u.
CTAATCCCCAAGGATCGCATGACAGAGTATGCTTTC	532 a.u.
GAATTGAAAGGGCATAACGTGCAGACAAAAACATAG	754 a.u.
CTAATTTCACAATAGCACGTATATTAATAATAGTTC	563 a.u.
GAATTACCAATCACGCACGCACGCAGTCGGTGCTAG	1880 a.u.
CCTAACTACTATAGTCATGAGCAATAGCTTCGTACA	576 a.u.
GAACTATCTTTATCTCACCTGTTTGAGGGAAAGTAG	568 a.u.
GAAATACTTCTTCGTGATGCGAATTTGATTGACTAG	586 a.u.

Series 2
Target: RING finger protein unkempt homolog, zinc fingers 1-6, GST-SBP tag (UNK, Homo sapiens, UniProt Q9C0B0, residues 30-357)
Technique: RNA Bind-n-Seq
Molecule type: RNA
Medium: in vitro
Concentration: not given
Notes: RNA with constant flanks, ends assumed
Baseline: input RNA pool
Direction: higher = stronger binding
Shared flanks, not repeated: GGGAGUUCUACAGUCCGACGAUC … CAACAGAGGAUUGAGCAUCA
Residues (chain): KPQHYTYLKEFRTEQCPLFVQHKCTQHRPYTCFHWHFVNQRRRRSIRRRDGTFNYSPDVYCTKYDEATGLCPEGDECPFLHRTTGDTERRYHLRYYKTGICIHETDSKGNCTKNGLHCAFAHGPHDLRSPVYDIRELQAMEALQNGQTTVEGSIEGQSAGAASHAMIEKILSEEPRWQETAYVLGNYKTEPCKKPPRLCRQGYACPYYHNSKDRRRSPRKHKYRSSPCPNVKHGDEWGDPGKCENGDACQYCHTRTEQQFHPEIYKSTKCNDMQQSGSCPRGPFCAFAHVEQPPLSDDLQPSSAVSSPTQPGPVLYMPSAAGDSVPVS
Oligonucleotide	bound/input enrichment [ratio]
GCAGAUGAAGUAGAGUUUACUGUGGUUCCUGAUAUGCUCUCUGCUCAAAGAAAUCAUGCUAUCCGGAUUAAAAAACUUCCCAAGGGCACGGUUUCAUUUCAUUCCCAUUCAGAUCACCGU	0.231
UUUAAUGACUCUCAGCGUCAGGCUACCAAAGAUGCUGGAACUAUUGCUGGUCUCAAUGUACUCCGAAUUAUUAAUGAGCCAACUGCUGCUGCUAUUGCUUACGGCUUAGACAAAAAGGUU	0.827
GCAGCUGGAGAUUCUAAGUCCAUCAUCACGUGUCGGGUGUCCCUUCUGGAUGGUACUGAUGUCCGUGUGGACUUGCCAAAAAAAGCCAAAGGACAAGAGUUGUUUGAUCAGAUUAUGUAC	0.137
AGCUUGAGCAGUUUGUUAAAGAAUGACAUUUCAGAUUCGGGAAUUGUGGGGCUUCAGCCCACCGACUUUGUCGCCAGUGCUCAUCAGCAUCCAGUGAGUGAGAGGCAAGAGGAGAUUCCC	0.22
UCUCUUCCUAUGCCAGUACCAUACUGUCUUAAUUACUGUAGCCCUAGAGUAAGUUUUGAAUUCCGGAUGUGUUAGUUCUCUAGCUUUGUUCUACAUCAAGAUAAUUUUACCUGUUCUGGG	2.54
GAGCAUCCCCCAAAGUUCACAAUGUGGCCGAGGACUUUGAUUGCACAUUGUUGUUUUUUUAACCGUCAUUCCAAAUAUGAGAUGCGUUGUUACAGGAAGUCCCUUGCCAUCCUAAAAGCC	0.198
GGCAUCUGGGCAGCGGACGAUGGAAGAACUCUGGGCUUCGGCUGGGACCUUUCGUUCAUGCCGCAGGAACCGGAGAUGGUUGCGUAGAGCAGCCCACGGUUUUGUGGAAAUCUGAAAACU	0.15
AAAGUGGACUAUGGCGAGUACAUGGAUAAAAACAAUGUGAGGCGGCAAGCAACAACAAUCACCGCUGAUAACAUUAUAUUUCUGAGUGACCAGACAAAAGAAAAGGCAUAGAACGGAUGA	0.392
CUCUUAAAAACUGUACCAAUUAUCCAAAAUCAAAUGGAUGCACUUCUUGAUUUUAAUGUUAACCGUAAUGAACUUACAAAUGGGGUAAUAAAUGCUGCCUUCAUGCUCCUCUUCAAAGAU	0.297
CUGGGUUUGCCAGCUGUUCCUGCGGUGACACUGUAUAAACACGAUGACCCUGCCUUGACUUCCGUUGCUGGUCUUACAUCAAAUAAGCCCACAGACAAACUCCGUGCCCUGCCUCUGUGG	0.0628
ACUUUUCCAGUAUUUUAGUGGACCCUGAAAUGUGUGUGAUGUGACAUUUGUCAUUUUCAUCCGCAAAAAAAGUUGUAUGAUCUGUGCCUUUUUUAUAUCUUGGCAGGUAGGAAUAUUAUA	0.322

Series 3
Target: Interferon regulatory factor 7, full length, phosphomimetic (IRF7, Homo sapiens, UniProt Q92985, residues 1-503, S471D/S472D/S475D/S476D/S477D/S483D/S484D/S487D)
Chain of UniProt Q92985 (whole entry, unmodified, looked up): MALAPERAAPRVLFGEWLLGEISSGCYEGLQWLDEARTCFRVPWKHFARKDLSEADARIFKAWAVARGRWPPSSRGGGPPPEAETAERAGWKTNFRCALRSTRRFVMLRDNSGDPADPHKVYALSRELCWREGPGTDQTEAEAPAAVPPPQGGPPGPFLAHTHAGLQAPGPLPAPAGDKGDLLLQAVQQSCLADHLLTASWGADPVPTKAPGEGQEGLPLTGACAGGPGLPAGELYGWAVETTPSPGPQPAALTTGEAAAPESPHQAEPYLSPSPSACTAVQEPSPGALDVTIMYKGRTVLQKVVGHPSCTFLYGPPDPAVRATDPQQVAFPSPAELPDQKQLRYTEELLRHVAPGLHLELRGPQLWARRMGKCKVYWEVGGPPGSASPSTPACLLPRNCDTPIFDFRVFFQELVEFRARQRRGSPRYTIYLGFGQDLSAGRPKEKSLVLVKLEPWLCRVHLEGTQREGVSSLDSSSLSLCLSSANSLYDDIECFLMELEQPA
Technique: protein-binding microarray
Molecule type: double-stranded DNA, one strand shown
Medium: in vitro
Concentration: 2200 nM top
Notes: 60-bp whole probe
With: salmon DNA 0.4 mg/ml
Baseline: random background probes
Direction: higher = stronger binding
Shared flanks, not repeated: GCCTAGCAC … GTCTTGATTCGCTTGACGCTGCTG
Oligonucleotide	fitted relative affinity [z-score]
TTAGGTTTCGACTTTCGATTAGTGCTA	9.64
AATTAATAACTCGTAGGATCGTGCTAG	-0.162
GACGATCTCAGTATCAAGACGTGCTAG	-0.128
TTAGAAATGAGTCTCGATTAGTGCTAG	-0.57
TTAAGTCTCGGACTGGGTTAGTGCTAG	-0.225
GACGAACTGAGACTGGGGACGTGCTAG	-0.315
GACGGTAACGGTCTCGGGACGTGCTAG	-0.594
TTTGGTTTCGGGACTGGGTTAGTGCTA	5.11
TACGGTTTCCTACTGCTGACGTGCTAG	2.5
TTTTTTTTTTTTTGGAATGTGTGCTAG	2.58
TCAAGAATGCCTTTAATACTGTGCTAG	-0.0865
TTAGATATAGGGTTTCGATTAGTGCTA	1.83
TCATGAATGCCCTTCCATACTGTGCTA	0.939
ACCAAAATCAAGTCTGGGCTAGTGCTA	-0.512
GACGGTTTCGGTTTCGGGCCGTGCTAG	14.3
GACGGTCTCCGTATCCTGACGTGCTAG	0.524
GACGCACTGCTACTGCTGACGTGCTAG	0.346
GACGGTATCGGACGGGGGACGTGCTAG	0.308
GACGAACTGGGGACTGGAGTCGTGCTA	0.0329
TTAGGTTTCGACTTTCGGTTTGTGCTA	15.3
TTAGAACTGGGGTTTCGACTAGTGCTA	0.692
GACGGTCTCCTTCTCCTTACGTGCTAG	1.2
TTAGGGATCCTTCTCCTTTAGTGCTAG	0.215
TTAGGTATCCTTAGCCTTTAGTGCTAG	-0.017
TCAGAAATCACCCTTGGAACTGTGCTA	-0.436

Series 4
Target: PABPC1L2, full length, GST fusion (mouse, UniProt A0ABA7IW68)
Technique: RNAcompete
Molecule type: RNA
Medium: in vitro
Concentration: 20 nM
Notes: 7-mer, probes averaged, single round
Baseline: mean of 7-mers
Direction: higher = stronger binding
Residues (chain): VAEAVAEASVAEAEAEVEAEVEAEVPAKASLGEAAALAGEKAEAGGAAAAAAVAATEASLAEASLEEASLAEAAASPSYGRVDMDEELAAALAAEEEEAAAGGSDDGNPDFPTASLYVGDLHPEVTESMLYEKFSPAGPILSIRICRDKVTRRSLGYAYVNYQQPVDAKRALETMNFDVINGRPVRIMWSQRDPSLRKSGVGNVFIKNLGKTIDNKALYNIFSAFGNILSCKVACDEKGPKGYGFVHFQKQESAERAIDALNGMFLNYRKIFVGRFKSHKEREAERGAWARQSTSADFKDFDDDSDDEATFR
Oligonucleotide	7-mer Z-score
UAAGUCA	-0.112
GGCCGCA	0.0714
GCUCUAA	0.153
CUUUUCA	-0.387
GGGUACU	0.129
GUCUCUG	-0.266
CGUAGCA	-0.0863
GCCUCAC	-0.173
UUAAGGA	0.124
UCCGGAA	-0.0264
CGGUGAA	-0.0953
GGACUGA	0.138
GUUGUUG	-0.367
GCACAAA	1.18
UGACGCU	-0.211
UGGGACG	0.332
AGAGGUG	0.202
GUCCGUG	-0.166
UGAGGCU	-0.166
UAGUACA	-0.101
GAGAGUG	-0.0047
CCCAACG	-0.3
GCAAUCC	-0.141
UCUCUUG	-0.458
GCUAGCA	-0.0935
